Results from different studies.
Parts stem from different laboratories: compare values within a part only.
Sequence of UniProt P35348 (whole entry, looked up): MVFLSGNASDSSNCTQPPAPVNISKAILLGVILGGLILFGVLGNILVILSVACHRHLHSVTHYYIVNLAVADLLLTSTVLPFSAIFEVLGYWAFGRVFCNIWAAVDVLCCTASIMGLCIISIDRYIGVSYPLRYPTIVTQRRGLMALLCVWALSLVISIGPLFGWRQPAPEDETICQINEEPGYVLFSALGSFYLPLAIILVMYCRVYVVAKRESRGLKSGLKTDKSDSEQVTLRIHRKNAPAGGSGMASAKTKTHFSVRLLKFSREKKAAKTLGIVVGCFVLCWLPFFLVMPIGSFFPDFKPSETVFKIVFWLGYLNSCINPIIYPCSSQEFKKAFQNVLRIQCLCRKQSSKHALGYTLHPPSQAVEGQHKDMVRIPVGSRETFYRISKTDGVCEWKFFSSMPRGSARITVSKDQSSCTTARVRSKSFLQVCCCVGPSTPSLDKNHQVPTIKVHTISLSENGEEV
Sequence of UniProt P23975 (whole entry, looked up): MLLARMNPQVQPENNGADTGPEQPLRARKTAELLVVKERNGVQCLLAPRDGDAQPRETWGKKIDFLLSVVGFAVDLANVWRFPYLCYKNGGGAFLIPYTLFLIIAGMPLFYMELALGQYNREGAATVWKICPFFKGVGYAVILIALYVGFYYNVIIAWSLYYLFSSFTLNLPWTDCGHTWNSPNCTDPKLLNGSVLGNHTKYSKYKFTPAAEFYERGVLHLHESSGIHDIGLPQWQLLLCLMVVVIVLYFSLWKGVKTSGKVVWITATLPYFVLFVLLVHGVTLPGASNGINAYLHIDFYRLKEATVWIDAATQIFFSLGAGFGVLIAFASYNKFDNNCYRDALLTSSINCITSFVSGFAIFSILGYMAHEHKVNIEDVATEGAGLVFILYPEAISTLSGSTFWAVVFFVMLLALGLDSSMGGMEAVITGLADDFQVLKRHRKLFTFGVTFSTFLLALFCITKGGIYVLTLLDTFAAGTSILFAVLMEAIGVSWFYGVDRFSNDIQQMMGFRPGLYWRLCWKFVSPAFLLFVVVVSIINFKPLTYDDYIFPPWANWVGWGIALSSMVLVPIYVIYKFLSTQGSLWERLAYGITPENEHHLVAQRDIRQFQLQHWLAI
Sequence of UniProt P62344 (whole entry, looked up): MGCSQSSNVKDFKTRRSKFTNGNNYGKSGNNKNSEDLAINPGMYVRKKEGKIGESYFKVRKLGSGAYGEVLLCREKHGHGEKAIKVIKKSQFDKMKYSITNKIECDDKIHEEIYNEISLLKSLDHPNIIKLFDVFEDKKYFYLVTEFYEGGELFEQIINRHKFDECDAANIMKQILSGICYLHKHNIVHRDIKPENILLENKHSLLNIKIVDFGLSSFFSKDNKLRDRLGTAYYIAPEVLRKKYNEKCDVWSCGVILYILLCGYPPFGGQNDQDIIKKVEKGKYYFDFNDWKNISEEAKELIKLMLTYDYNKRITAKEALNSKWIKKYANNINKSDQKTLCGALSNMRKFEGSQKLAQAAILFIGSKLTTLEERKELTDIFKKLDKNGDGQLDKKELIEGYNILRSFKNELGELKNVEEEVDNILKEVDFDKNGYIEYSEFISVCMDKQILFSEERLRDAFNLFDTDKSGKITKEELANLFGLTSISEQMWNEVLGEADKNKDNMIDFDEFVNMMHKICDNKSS

Block 1 — host: human; sample: microsomes or S9; concentration: 2 µM; time: 0.5 h
For `CC(C)(C)c1cc(-n2c(=O)[nH]c3ccccc3c2=O)no1`, the remaining compound was 95.5%.
The remaining compound of `COc1cc(C(=O)Nc2c(C)cc(Cl)cc2C(=O)NC(C)C)n(-c2ncccc2Cl)n1` is reported as 82.6%.
The remaining compound of `Cn1ccn2ncc(C(=O)N[C@H]3COC[C@@H]3N3CCCCC3)c12` is reported as > 99.9%.

Further values, each from its own experiment
ADRB1: Beta-1 adrenergic receptor (ADRB1, Homo sapiens, UniProt P08588)
Sequence of UniProt P08588 (whole entry, looked up): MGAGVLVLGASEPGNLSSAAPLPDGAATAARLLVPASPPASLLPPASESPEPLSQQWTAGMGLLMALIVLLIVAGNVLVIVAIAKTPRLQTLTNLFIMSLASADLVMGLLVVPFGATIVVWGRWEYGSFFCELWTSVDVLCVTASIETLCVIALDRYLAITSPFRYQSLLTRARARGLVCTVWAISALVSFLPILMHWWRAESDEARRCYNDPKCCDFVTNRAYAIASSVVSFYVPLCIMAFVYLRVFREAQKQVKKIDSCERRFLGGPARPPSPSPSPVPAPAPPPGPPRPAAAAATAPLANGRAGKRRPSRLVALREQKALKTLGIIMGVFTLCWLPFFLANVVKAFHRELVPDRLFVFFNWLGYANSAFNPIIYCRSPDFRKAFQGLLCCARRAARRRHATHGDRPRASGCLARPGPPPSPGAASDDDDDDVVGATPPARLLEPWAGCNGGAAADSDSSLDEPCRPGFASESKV
With `CCc1ccccc1C(=O)Nc1n[nH]c2c(C)c(F)c(C3C(C#N)=C(C)N(C)C(C)=C3C#N)cc12` the inhibition was 2.8% (SLC6A2 (Homo sapiens, UniProt P23975); ligand displacement; 10 µM).
The viability of `C[C@]12CC[C@H]3[C@@H](CC[C@@]45O[C@@H]4C(O)=C(C#N)C[C@]35C)[C@@H]1CC[C@@H]2O` is reported as 31.5% (HaCaT; 100 µM, 60 h).
`O=C1NC(c2ccccn2)Sc2ccccc21` (stereo not drawn) gave a remaining binding of 57% (CDPK1 (Plasmodium falciparum, UniProt P62344); cell-free assay, competition with immobilised ligand; 1 µM).
With `CN1C[C@H](C(=O)N[C@]2(C)O[C@@]3(O)[C@@H]4CCCN4C(=O)[C@H](Cc4ccccc4)N3C2=O)C[C@@H]2c3cccc4[nH]cc(c34)C[C@H]21` the EC50 was 8.33 µM (ADRB1).
The inhibition of `Cc1c(N2CCNCC2)nc2ccc(Br)cc2c1C(=O)NC[C@H](CCC(=O)O)c1ccccc1Cl` is reported as 23.3% (ADRA1A (Homo sapiens, UniProt P35348); ligand displacement; 10 µM).
For `CC(Cc1ccccc1)NCCC(c1ccccc1)c1ccccc1` (stereo not drawn), the EC50 was 5.26 µM (ADRB1).

Some of these lines once more (further values, each from its own experiment):
The viability of `C[C@]12CC[C@H]3[C@@H](CC[C@@]45O[C@@H]4C(O)=C(C#N)C[C@]35C)[C@@H]1CC[C@@H]2O` is reported as 31.5% (HaCaT; 100 µM, 60 h).
